Published values from different studies.
Protocols differ between the studies behind these lines. ± gives the spread as reported.
EPHA2: Ephrin type-A receptor 2 (EPHA2, Homo sapiens, UniProt P29317)
UniProt P29317, sequence (whole entry, looked up): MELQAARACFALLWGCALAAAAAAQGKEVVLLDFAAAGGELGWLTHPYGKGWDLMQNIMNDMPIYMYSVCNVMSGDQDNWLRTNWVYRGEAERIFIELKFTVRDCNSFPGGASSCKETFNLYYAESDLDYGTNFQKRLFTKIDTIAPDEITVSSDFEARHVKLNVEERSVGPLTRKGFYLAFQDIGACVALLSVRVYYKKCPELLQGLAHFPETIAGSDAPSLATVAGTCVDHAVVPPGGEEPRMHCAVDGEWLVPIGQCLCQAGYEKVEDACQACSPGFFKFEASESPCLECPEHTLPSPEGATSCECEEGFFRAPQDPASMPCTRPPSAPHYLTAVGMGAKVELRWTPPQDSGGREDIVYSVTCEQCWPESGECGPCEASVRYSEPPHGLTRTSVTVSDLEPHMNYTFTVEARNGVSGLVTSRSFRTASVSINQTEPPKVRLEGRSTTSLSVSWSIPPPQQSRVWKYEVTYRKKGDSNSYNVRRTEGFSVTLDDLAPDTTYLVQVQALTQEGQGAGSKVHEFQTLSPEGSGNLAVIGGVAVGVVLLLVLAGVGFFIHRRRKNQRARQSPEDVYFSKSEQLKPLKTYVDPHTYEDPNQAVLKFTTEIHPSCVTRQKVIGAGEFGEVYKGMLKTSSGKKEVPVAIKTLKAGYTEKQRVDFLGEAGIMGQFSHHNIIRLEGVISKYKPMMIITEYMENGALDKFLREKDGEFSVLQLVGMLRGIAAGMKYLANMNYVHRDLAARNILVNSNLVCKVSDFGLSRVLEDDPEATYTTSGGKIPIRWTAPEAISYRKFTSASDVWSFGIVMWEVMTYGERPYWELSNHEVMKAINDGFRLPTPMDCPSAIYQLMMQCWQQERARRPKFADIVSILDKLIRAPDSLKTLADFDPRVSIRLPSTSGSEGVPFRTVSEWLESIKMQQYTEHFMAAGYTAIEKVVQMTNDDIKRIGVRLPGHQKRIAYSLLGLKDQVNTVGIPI
Tspo: Translocator protein (Tspo, Rattus norvegicus, UniProt P16257)
UniProt P16257, sequence (whole entry, looked up): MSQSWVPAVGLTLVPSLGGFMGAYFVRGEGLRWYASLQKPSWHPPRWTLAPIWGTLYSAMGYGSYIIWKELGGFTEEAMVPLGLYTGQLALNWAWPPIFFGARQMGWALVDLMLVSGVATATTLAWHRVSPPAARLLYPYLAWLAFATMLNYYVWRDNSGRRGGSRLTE
CNR1: Cannabinoid receptor 1 (CNR1, Homo sapiens, UniProt P21554)
UniProt P21554, sequence (whole entry, looked up): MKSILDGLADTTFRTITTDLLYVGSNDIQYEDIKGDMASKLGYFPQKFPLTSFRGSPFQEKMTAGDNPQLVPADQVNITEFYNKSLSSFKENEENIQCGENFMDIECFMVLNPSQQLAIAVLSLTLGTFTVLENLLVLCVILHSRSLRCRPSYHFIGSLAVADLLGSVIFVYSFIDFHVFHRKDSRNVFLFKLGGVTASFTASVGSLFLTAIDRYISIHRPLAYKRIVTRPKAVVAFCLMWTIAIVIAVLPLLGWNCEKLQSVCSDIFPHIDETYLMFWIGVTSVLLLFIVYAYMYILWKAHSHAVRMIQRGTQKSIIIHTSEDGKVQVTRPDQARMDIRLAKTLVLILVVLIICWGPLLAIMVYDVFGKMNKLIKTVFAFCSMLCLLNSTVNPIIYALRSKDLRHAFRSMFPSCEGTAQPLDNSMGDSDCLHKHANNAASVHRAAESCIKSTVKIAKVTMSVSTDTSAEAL
CFTR: Cystic fibrosis transmembrane conductance regulator (CFTR, Homo sapiens, UniProt P13569)
Astl: Astacin-like metalloendopeptidase (Astl, Mus musculus, UniProt Q6HA09)
UniProt Q6HA09, sequence (whole entry, looked up): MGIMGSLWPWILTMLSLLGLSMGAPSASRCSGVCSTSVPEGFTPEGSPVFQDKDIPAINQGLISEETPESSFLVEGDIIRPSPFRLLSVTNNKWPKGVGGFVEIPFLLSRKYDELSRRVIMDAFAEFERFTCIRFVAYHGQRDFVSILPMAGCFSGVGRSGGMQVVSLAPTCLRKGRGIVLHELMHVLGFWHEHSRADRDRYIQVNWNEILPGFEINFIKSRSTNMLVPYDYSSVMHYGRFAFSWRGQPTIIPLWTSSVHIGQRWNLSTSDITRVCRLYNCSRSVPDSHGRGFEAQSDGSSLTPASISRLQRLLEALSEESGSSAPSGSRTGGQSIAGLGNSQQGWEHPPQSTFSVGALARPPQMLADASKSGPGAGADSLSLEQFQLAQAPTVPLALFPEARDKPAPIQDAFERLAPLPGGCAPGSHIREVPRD
XIAP BIR3: E3 ubiquitin-protein ligase XIAP, BIR3 (XIAP, Homo sapiens, UniProt P98170)
UniProt P98170, sequence (whole entry, looked up): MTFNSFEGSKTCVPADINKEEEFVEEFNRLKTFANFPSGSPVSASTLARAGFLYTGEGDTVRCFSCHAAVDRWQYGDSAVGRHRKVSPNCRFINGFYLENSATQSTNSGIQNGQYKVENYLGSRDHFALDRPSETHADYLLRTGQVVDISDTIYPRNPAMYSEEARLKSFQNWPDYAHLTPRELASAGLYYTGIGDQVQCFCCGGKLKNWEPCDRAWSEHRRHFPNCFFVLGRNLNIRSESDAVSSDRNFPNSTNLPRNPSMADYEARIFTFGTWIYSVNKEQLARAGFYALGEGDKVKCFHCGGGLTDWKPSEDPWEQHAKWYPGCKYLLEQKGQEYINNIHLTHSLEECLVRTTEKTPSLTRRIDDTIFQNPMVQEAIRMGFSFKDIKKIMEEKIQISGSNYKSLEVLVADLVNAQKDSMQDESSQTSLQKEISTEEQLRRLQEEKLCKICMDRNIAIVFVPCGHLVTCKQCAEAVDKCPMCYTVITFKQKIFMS
Calpain-2 catalytic subunit: Calpain-2 catalytic subunit (Homo sapiens, UniProt P17655)
UniProt P17655, sequence (whole entry, looked up): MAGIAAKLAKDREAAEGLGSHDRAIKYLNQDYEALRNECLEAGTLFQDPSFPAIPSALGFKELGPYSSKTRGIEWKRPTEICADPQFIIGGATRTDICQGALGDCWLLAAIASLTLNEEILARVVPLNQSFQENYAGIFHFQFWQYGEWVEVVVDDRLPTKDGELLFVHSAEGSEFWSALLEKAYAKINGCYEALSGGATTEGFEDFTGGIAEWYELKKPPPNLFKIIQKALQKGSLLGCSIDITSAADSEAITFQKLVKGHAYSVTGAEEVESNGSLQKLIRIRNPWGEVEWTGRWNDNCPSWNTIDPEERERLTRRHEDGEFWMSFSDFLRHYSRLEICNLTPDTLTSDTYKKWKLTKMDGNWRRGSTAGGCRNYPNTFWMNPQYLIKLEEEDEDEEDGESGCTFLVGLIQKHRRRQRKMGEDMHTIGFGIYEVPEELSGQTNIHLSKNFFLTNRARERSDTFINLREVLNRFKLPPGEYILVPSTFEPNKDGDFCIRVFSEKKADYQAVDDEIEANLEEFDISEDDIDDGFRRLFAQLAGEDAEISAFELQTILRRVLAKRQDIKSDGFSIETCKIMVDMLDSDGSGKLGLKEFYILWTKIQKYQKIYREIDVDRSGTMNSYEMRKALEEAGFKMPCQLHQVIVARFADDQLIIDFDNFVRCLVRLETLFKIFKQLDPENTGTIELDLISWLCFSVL
Na(+)/H(+) exchange regulatory cofactor NHE-RF2 PDZ domain 1: Na(+)/H(+) exchange regulatory cofactor NHE-RF2, PDZ domain 1 (Homo sapiens, UniProt Q15599)
CAPN1: Calpain-1 catalytic subunit (CAPN1, Homo sapiens, UniProt P07384)
GLAA: Glucoamylase (GLAA, Aspergillus niger, UniProt P69328)
UniProt P69328, sequence (whole entry, looked up): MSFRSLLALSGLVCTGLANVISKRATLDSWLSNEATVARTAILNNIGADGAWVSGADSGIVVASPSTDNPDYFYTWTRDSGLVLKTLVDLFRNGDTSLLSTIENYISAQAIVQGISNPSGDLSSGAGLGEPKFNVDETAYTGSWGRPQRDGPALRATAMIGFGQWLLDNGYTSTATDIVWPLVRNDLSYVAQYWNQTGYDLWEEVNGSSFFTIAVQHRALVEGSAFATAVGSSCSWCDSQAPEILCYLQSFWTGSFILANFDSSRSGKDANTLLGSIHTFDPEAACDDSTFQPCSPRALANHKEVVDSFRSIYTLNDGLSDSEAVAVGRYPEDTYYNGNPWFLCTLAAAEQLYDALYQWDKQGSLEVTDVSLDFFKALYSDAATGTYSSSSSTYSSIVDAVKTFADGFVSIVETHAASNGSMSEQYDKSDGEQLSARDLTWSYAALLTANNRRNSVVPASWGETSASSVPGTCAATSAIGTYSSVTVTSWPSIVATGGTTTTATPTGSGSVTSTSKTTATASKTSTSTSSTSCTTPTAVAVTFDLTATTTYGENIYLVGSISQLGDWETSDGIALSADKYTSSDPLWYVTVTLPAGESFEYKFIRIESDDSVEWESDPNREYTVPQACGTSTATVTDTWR
bglA: bglA (Thermotoga maritima, UniProt Q08638)
UniProt Q08638, sequence (whole entry, looked up): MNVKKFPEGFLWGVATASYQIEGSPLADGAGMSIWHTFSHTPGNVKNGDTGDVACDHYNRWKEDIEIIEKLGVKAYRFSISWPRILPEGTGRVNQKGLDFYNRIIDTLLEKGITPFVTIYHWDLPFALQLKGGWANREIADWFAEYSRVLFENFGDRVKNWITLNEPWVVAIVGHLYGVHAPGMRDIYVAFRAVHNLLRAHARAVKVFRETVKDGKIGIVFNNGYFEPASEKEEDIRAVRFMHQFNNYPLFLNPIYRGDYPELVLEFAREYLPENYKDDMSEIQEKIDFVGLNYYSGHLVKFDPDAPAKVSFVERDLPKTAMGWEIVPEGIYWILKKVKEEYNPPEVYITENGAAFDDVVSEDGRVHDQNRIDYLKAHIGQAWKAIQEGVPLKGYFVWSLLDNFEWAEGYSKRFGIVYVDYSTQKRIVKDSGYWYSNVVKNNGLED
UniProt P35408, sequence (whole entry, looked up): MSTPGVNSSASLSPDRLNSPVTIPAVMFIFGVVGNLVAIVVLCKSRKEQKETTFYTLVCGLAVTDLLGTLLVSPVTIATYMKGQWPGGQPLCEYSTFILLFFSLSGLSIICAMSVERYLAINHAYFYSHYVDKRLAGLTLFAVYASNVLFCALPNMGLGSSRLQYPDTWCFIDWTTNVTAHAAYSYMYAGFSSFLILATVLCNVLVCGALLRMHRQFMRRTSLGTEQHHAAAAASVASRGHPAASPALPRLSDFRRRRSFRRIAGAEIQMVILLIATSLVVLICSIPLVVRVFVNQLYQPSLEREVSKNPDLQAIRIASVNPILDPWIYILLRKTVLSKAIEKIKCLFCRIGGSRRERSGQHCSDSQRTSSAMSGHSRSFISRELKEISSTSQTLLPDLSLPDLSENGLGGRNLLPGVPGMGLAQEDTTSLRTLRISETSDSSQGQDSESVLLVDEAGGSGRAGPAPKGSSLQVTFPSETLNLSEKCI

CNC(=O)C1CCN(c2ccccc2NC(=O)c2ccc(-c3cc(OC)ccc3C)c(C)c2)CC1
Ki (EPHA2): > 0.25 µM

CNC(=O)[C@@]12C[C@@H]1[C@@H](n1cnc3c(NCc4cccc(Cl)c4)nc(C#Cc4cccc(Cl)c4)nc31)[C@H](O)[C@@H]2O
Ki (Tspo; ligand displacement, radioligand): 1.77 µM

CCOCCNC(=O)N1CCC[C@H](c2n[nH]c(-c3ccccc3)n2)C1
Ki (Aromatase (CYP19A1, Homo sapiens, UniProt P11511); enzyme activity, inhibitor): 12.8 µM

CCc1c(C(=O)NCCc2ccc(N3CCCCC3)cc2)[nH]c2ccc(Cl)cc12
Ki (CNR1; ligand displacement in cells, radioligand): 0.4 µM

CC1(C)NC(N)=Nc2nc3c(Cl)cc(Cl)cc3n21
Ki (DHFR (Homo sapiens, UniProt P00374); inhibitor): 1.35 µM

O=C(N/N=C/c1cc(Br)c(O)c(Br)c1O)C(=O)Nc1ccc2ccccc2c1
Ki (CFTR; chloride current, inhibitor, short-circuit current; FRT; basolateral membrane permeabilized): 2.7 µM

CNC(=O)C1CCN(c2cc(C)c(F)cc2NC(=O)c2ccc(-c3cc(O)ccc3C)c(C)c2)CC1
Ki (EPHA8 (Homo sapiens, UniProt P29322); cell-free assay, TR-FRET): 0.0047 µM

CC(C)C[C@@H]1NC(=O)[C@H](C)NC(=O)[C@H](CC2CCN(C(=N)N)CC2)NC(=O)[C@H](CO)NC(=O)[C@H](CCCNC(=N)N)NC(=O)[C@H](CCCCN)NC(=O)[C@@H]2CCCN2C(=O)[C@@H](N)CSSC[C@@H](C(=O)O)NC(=O)[C@H](Cc2ccccc2)NC1=O
Ki (Plasminogen (PLG, Homo sapiens, UniProt P00747); enzyme activity, inhibitor, absorbance; pH 7.4): 12.5 µM

O=C(CCN(Cc1cccc(C(=O)O)c1)Cc1cccc(C(=O)O)c1)NO
Ki (Astl; enzyme activity, inhibitor, fluorogenic; pH 7.4, 37 °C, apparent Ki, Morrison equation, added: 25 µM substrate): 1.06 ± 0.03 µM

CN[C@@H](C)C(=O)N[C@H]1CN(C(=O)Cc2ccccc2)CC[C@H]2CC[C@@H](C(=O)NCc3cccc(Cl)c3)N2C1=O
Ki (XIAP BIR3; ligand displacement, FP): 1.02 µM

CCC(NC(=O)C(CC(C)C)NC(=O)NCc1ccccc1)C(=O)C(=O)NCc1cc(OC)cc(OC)c1 (centres unmarked)
Ki (Calpain-2 catalytic subunit; enzyme activity, inhibitor, fluorescence): 0.072 µM

CC[C@H](C)[C@H](NC(=O)[C@@H](NC(=O)[C@H](CO)NC(=O)[C@@H](NC(=O)[C@H](CCC(N)=O)NC(=O)[C@H](CCSC)NC(=O)[C@@H](N)CS)[C@@H](C)O)[C@@H](C)CC)C(=O)O
Ki (Na(+)/H(+) exchange regulatory cofactor NHE-RF2 PDZ domain 1; binding to PDZ1 domain, inhibitor, fluorescence polarization): 245 ± 26 µM

COC(=O)c1ccc(-n2nc(C(F)(F)F)cc2-c2cc(OC)c(OC)c(OC)c2)cc1
Ki (tubulin (goat); colchicine binding, fluorescence competition; 37 °C, added: colchicine 5 µM): 2.2 ± 0.5 µM

[N-]=[N+]=N[C@H]1C[C@H](n2cnc3c(=S)[nH]c(N)nc32)O[C@@H]1COP(=O)(O)OP(=O)(O)OP(=O)(O)O
Ki (TERT (Homo sapiens, UniProt O14746); enzyme activity, inhibitor): 9 µM

OC[C@@H](CNCc1cn2cc(Cl)ccc2n1)CC1CCCC1
Ki (DRD2 (Homo sapiens, UniProt P14416); ligand displacement, radioligand): 4.78 µM

O=C(O)C1CC1C(=O)c1ccc(Cl)c(Cl)c1 (centres unmarked)
Ki (KMO (Homo sapiens, UniProt O15229); enzyme activity, inhibitor, HPLC; pH 8.5): 0.0567 µM

CN[C@@H](C)C(=O)N[C@H]1CN(C(=O)Cc2ccccc2)CC[C@H]2CC[C@@H](C(=O)NCc3ccc(F)cc3)N2C1=O
Ki (XIAP BIR3; ligand displacement, FP): 0.393 µM

O=C(CN(Cc1ccc2c(c1)OCO2)Cc1ccc2c(c1)OCO2)NO
Ki (Astl; enzyme activity, inhibitor, fluorogenic; pH 7.4, 37 °C, apparent Ki, Morrison equation, added: 25 µM substrate): 2.56 ± 0.13 µM

CCC(NC(=O)C(CC(C)C)NC(=O)CCc1ccncc1)C(=O)C(=O)NCc1cc(OC)cc(OC)c1 (centres unmarked)
Ki (CAPN1; enzyme activity, inhibitor, fluorescence): 0.061 µM

CCCCCCCCNC(=S)N1[C@H](CCC)[C@H](O)[C@@H](O)[C@H](O)[C@H]1CO
Ki (GLAA; enzyme activity, competitive inhibitor; optimal pH, added: p-nitrophenyl glycopyranoside): > 2000 µM

CNC(=O)C1CCN(c2ccccc2NC(=O)c2ccc(-c3cccc(O)c3)c(C)c2)CC1
Ki (EPHA2; enzyme activity, inhibitor): 0.117 µM

CC[C@H](C)[C@H](NC(=O)[C@@H](NC(=O)[C@H](CO)NC(=O)[C@@H](NC(=O)[C@H](CCC(N)=O)NC(=O)[C@H](Cc1c[nH]c2ccccc12)NC(=O)[C@@H](N)CS)[C@@H](C)O)[C@@H](C)CC)C(=O)O
Ki (Na(+)/H(+) exchange regulatory cofactor NHE-RF2 PDZ domain 1; binding to PDZ1 domain, inhibitor, fluorescence polarization): 496 ± 151 µM

CCC(NC(=O)C(CC(C)C)NC(=O)CCc1ccccc1)C(=O)C(=O)NCc1cc(OC)cc(OC)c1 (centres unmarked)
Ki (CAPN1; enzyme activity, inhibitor, fluorescence): 0.134 µM

CNC(=O)C1CCN(c2ccccc2NC(=O)c2ccc(-c3ccccc3C)c(C)c2)CC1
Ki (EPHA2; enzyme activity, inhibitor): 0.096 µM

CC(=O)c1ccc(NC(=O)c2nc(-c3ccccc3)n(-c3ccc(Cl)cc3)n2)cc1
Ki (CNR1; cell-free assay): 0.502 µM

COc1ccc(CCC(=O)Nc2nc3ccc(CCC(=O)NCCOCCOCC(=O)N[C@H](C(=O)N4C[C@H](O)C[C@H]4C(=O)NCc4ccc(-c5scnc5C)cc4)C(C)(C)C)cc3s2)cc1OC
Ki (Squalene synthase (Homo sapiens, UniProt P37268); ligand displacement, FP): 0.1 µM

CCCc1nc(C(C)(C)O)c(C(=O)O)n1Cc1ccc(-c2ccccc2-c2nnn[nH]2)cc1
Ki (AGTR1 (Homo sapiens, UniProt P30556); cell-free assay): 0.0053 µM

CCC(C)N(C)C(=O)C(C)Cc1cc(-c2ccccc2)nc2ccccc12 (centres unmarked)
Ki (Tspo; binding, radioligand displacement; rat brain homogenate): 0.005 ± 0.003 µM

OC[C@H]1c2[nH]cnc2[C@H](O)[C@@H](O)[C@@H]1O
Ki (bglA; enzyme activity, inhibitor; pH 6.8): 58 µM

CC[C@H](C)[C@H](NC(=O)[C@H](CO)NC(=O)[C@H](Cc1ccc(O)cc1)NC(=O)[C@H](CC(=O)O)NC(=O)[C@H](CO)NC(=O)[C@@H](NC(=O)[C@H](Cc1ccccc1)NC(=O)[C@@H](N)[C@@H](C)O)[C@@H](C)CC)C(=O)N[C@@H](C)C(=O)N[C@@H](CCSC)C(=O)N[C@@H](CC(=O)O)C(=O)N[C@@H](CCCCN)C(=O)N[C@H](C(=O)N[C@@H](Cc1c[nH]cn1)C(=O)N[C@@H](CCC(N)=O)C(=O)N[C@@H](CCC(N)=O)C(=O)N[C@@H](CC(=O)O)C(=O)N[C@@H](Cc1ccccc1)C(=O)N[C@H](C(=O)N[C@@H](CC(N)=O)C(=O)N[C@@H](Cc1c[nH]c2ccccc12)C(=O)N[C@@H](CC(C)C)C(=O)N[C@@H](CC(C)C)C(=O)N[C@@H](C)C(=O)N[C@@H](CCC(N)=O)C(=O)N[C@@H](CCCCN)C(N)=O)C(C)C)[C@@H](C)CC
Ki (GIPR (Homo sapiens, UniProt P48546); antagonist, Schild analysis, item: cAMP; COS-7 transfected; 10 min preincubation, added: GIP(1-42)): 0.0152 µM

CN[C@@H](C)C(=O)N[C@H]1CN(C(=O)Cc2ccccc2)CC[C@H]2CC[C@@H](C(=O)NCc3ccc(OC)cc3)N2C1=O
Ki (XIAP BIR3; ligand displacement, FP): 16.3 µM

CCC[C@H]1N[C@H](CO)[C@@H](O)[C@H](O)[C@H]1O
Ki (bglA; competitive inhibitor; added: p-nitrophenyl glucopyranoside): 657 ± 65 µM

Nc1ncnc2c1ncn2[C@@H]1O[C@H](COP(=O)(O)NP(=O)(O)OP(=O)(O)O)[C@@H](O)[C@H]1O
Ki (MAT2A (Homo sapiens, UniProt P31153); enzyme activity, inhibitor): 0.9 µM

CCC[C@@H]1[C@H](O)[C@@H](O)[C@H](O)[C@@H](CO)N1C(=S)NCc1ccc(OC)cc1
Ki (GLAA; enzyme activity, inhibitor): 842 µM

CCOC(=O)CSc1nc2ccccc2c(=O)n1-c1ccccc1C
Ki (CFTR; concentration not given): ~5 µM

CCCC/N=C1/SC[C@@H]2[C@@H](O)[C@H](O)[C@@H](O)[C@@H](CCC)N12
Ki (GLAA; enzyme activity, competitive inhibitor; optimal pH, added: p-nitrophenyl glycopyranoside): > 2000 µM

CC(C)C[C@H](NC(=O)[C@H](Cc1ccccc1)NC(=O)[C@H](CO)NC(=O)[C@H](CCCNC(=N)N)NC(=O)[C@@H]1CCCN1)C(=O)N[C@H](C(=O)N[C@@H](CCCNC(=N)N)C(=O)N[C@@H](CCCCN)C(=O)N1CCC[C@H]1C(=O)N[C@@H](CO)C(=O)N[C@@H](CC(=O)O)C(=O)N1CCC[C@H]1C(=O)N[C@@H](CC(N)=O)C(=O)N[C@@H](CCCNC(=N)N)C(=O)N[C@@H](CCCCN)C(=O)N1CCC[C@H]1C(=O)N[C@@H](CC(N)=O)C(=O)N[C@@H](Cc1ccc(O)cc1)C(=O)N[C@@H](CO)C(=O)N[C@@H](CCC(=O)O)C(=O)O)C(C)C
Ki (Lysine-specific histone demethylase 1B (Mus musculus, UniProt Q8CIG3); enzyme activity, inhibitor; pH 7.5): 2.22 µM

CCCCCCCC[C@H]1N[C@H](CO)[C@@H](O)[C@H](O)[C@H]1O
Ki (GLAA; enzyme activity, inhibitor): 12.3 µM

CCC(NC(=O)C(CC(C)C)NC(=O)CCc1ccccc1)C(=O)C(=O)NCc1cc(F)cc(OC)c1 (centres unmarked)
Ki (Calpain-2 catalytic subunit; enzyme activity, inhibitor, fluorescence): 0.103 µM

CCCCCCCCN1[C@H](CCC)[C@H](O)[C@@H](O)[C@H](O)[C@H]1CO
Ki (bglA; competitive inhibitor; added: p-nitrophenyl glucopyranoside): > 2000 µM

O=C(O)COc1cccc(NC(=O)c2cc(-c3cccc(F)c3)ccc2F)c1
Ki (PTGER4 (Homo sapiens, UniProt P35408); ligand displacement, radioligand; cell membranes): 1.26 µM

A few entries again:
CCC(NC(=O)C(CC(C)C)NC(=O)NCc1ccccc1)C(=O)C(=O)NCc1cc(OC)cc(OC)c1 (centres unmarked)
Ki (Calpain-2 catalytic subunit; enzyme activity, inhibitor, fluorescence): 0.072 µM

CN[C@@H](C)C(=O)N[C@H]1CN(C(=O)Cc2ccccc2)CC[C@H]2CC[C@@H](C(=O)NCc3ccc(OC)cc3)N2C1=O
Ki (XIAP BIR3; ligand displacement, FP): 16.3 µM

CCCCCCCCN1[C@H](CCC)[C@H](O)[C@@H](O)[C@H](O)[C@H]1CO
Ki (bglA; competitive inhibitor; added: p-nitrophenyl glucopyranoside): > 2000 µM

CNC(=O)C1CCN(c2ccccc2NC(=O)c2ccc(-c3ccccc3C)c(C)c2)CC1
Ki (EPHA2; enzyme activity, inhibitor): 0.096 µM

CNC(=O)C1CCN(c2ccccc2NC(=O)c2ccc(-c3cccc(O)c3)c(C)c2)CC1
Ki (EPHA2; enzyme activity, inhibitor): 0.117 µM

Nc1ncnc2c1ncn2[C@@H]1O[C@H](COP(=O)(O)NP(=O)(O)OP(=O)(O)O)[C@@H](O)[C@H]1O
Ki (MAT2A (Homo sapiens, UniProt P31153); enzyme activity, inhibitor): 0.9 µM
